Assay results from different studies.
Each numbered part is a random draw from the data of one study; scales do not carry over between parts. Positions count from the first letter of the parent shown.

Set 1
Target: RNA binding protein fox-1 homolog 2, RRM domain, GST-SBP tag (RBFOX2, Homo sapiens, UniProt O43251-10, residues 100-194)
Method: RNA Bind-n-Seq
Form: RNA
Matrix: in vitro
Concentration: 365 nM
Notes: natural RNA segment, single round, ends assumed
Relative to: no-protein control
Reading: higher = stronger binding
Shared flanks, not repeated: GGGAGUUCUACAGUCCGACGAUC … UGGAAUUCUCGGGUGCCAA
Construct (chain): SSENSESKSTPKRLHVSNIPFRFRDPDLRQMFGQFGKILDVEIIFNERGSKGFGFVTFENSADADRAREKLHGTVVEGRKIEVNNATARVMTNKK
Under “RBNS enrichment (R)”, `AUCAUAGUCGAUACAUUCAAGUACUUUAUCUUCAGUUCCUAUUUAAUUGUCUUCAGAUAUAUCAUCAUAACUGAUGCAAGAUAAGGUGAAAUCUUGCAUCUUCAAGAAAA` is recorded as 0.469.
`CUCUCCCGUUGAGCACUAGCAGCUGGAGGAGUUGGGAGUUCAUGGCUAUCAUGGUUGUGUUAAUCGAUUGUGGGGAUGAAAUGUCAUUGUGUAUGGAAGGCGGGGCUCAU` — result for “RBNS enrichment (R)”: 0.957.
`UAUGUGUAGACAAGCUCUCGCUCUGUCACCCAGGCUGGAGUGCAGUGGUGCAAUCAUGGUUCACUGCAGUCUUGACCUUUUGGGCUCAAGUGAUCCUCCCACCUCAGCCU`: “RBNS enrichment (R)” 0.206.
`AACAGUUGUAGGGAGACCCAGCAGCACCUUUCCUCCACACACCUUCAUUUUGAUGUUCGGGUUUUUGUGUUAAGUUAAUCUGUACAUUCUGUUUGCCAUUGUUACUUGUA` — result for “RBNS enrichment (R)”: 0.711.
`ACUGUGUCAAAAGCUGUGAGCAGCAAAAUAUAAUCCAUAUGACCUUUUCUCUUGCACUUCACUUGUAUGUUUUACUGUGGUGGAAAAAAUACUUCAACUGAUUAUCACAC`: “RBNS enrichment (R)” 0.589.
`CUCCACAGAGACAGGAUGGUGGAGGGAGUUGUGUGCAGUUGAACUUGAUCCUGUAGUUGGUUUUGACCUGGUGUGGUCCCUCCAUGCUGUGGAAGUGAAAUGUGAGGGAA`: “RBNS enrichment (R)” 2.85.
Under “RBNS enrichment (R)”, `GGGCCAAUGAUUCUUGUGUGUCAGCACUGUUACUACCGAGUGCUGAGUAAGGGCAAAAUAAUACCCCUUUCUCUAUGUAUCUCUGUAUGCACACGCACUAUAUAUAUAUA` is recorded as 0.292.
Under “RBNS enrichment (R)”, `AUGCCAAGUUGGAUCCCCCGAAUGAAGCAGAUGUGGCUGUGGUGUGACCCUUGCUCCCUGCUACACAGAGCAUCGCAGGGCUGGCCUGUGUGGUUUCCAGAUGAGGGUCU` is recorded as 0.794.
`UUUUAUUGGGAAAUUAAAUAGUGUGAUAUUUGGGUUGAUAUAAUGAAAUCCUCAGCCUGGAAACUGGGCCAGAUUGUUCCUUGCUUCAAAUAUCUUUUCCUAAAGAAGAU`: “RBNS enrichment (R)” 0.599.
`UGAAGGCCACUCAGAGCAUCUUGCAGUCACAGCUGUUCCUGAGCCUGAGGCCAGAAGAUUCCCUAACCCAGGACUUUGAAGCCAACCUAGGCAACAUGAUGGGGACCCUC`: “RBNS enrichment (R)” 0.405.
`AUGCUUUGUGUAAUUUAUAACAAGGAUUUUUUUUUUAGCUUUGUUAACUGUGAAUUCACCCCUCCUCCUCCACUGCAUAUUUAAAGCAUGUGUUCACACUGUGUGUAAAC` — result for “RBNS enrichment (R)”: 2.06.
Under “RBNS enrichment (R)”, `GGGGUUGAAGGCUGGGGAGGAGGAUCUACUGCUGUACAGCUAAUAAAUCAUAACGGAUUAACAGGCAUUCUGAAGACUCCGUCUUUUGGGACUCCUAUUUGUCCAGGUCC` is recorded as 0.248.

Set 2
Target: CCNA1, cyclin fold, Cln2 fusion (human)
Method: yeast growth competition, sequencing
Matrix: yeast
Notes: weak parent motif
Relative to: not given
Reading: higher = stronger binding
Parent: GMNC docking peptide (human); KNAKRNLSSEFAN
For `A3L`, “normalised enrichment score” read -0.0177.
For `E10Q`, “normalised enrichment score” read 0.825.
`S9Q` — result for “normalised enrichment score”: 0.561.
`E10S`: “normalised enrichment score” 0.0776.
Under “normalised enrichment score”, `S8N` is recorded as 0.832.
`R5V`: “normalised enrichment score” -0.459.
`A12H`: “normalised enrichment score” 0.298.
`K4I`: “normalised enrichment score” 0.404.
`R5D`: “normalised enrichment score” -0.162.
`A3K`: “normalised enrichment score” 0.106.
For `S8H`, “normalised enrichment score” read 0.349.

Set 3
Target: Histone acetyltransferase KAT6A, winged helix 1, GST fusion (KAT6A, Homo sapiens, UniProt Q92794, residues 1-85)
Method: protein binding microarray
Form: double-stranded DNA, one strand shown
Matrix: in vitro
Concentration: not given
Notes: 8-mer, flanks averaged, mean of 2 arrays, mostly near background
Relative to: not given
Reading: higher = stronger binding
Residues (chain): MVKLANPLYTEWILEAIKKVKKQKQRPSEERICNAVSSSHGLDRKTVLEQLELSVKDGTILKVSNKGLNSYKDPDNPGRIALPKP
For `ACCAGAGA`, the E-score was -0.287.
The E-score of `ACATACCG` is reported as 0.206.
For `CTTACTCA`, the E-score was -0.0789.
`ACAAAGCC` gave an E-score of 0.0508.
`ATGACACC` gave an E-score of -0.216.
`GTGGGTGA` gave an E-score of -0.000505.
With `GACCGGTC` the E-score was 0.204.
`GGCCGCAC` has an E-score of 0.365.

Mixed results
With `PhoQ, residues 284 288 289 292 302 303 SMYGEC` the fold induction was 6.98 (PhoP, residues 12 14 15 18 19 TQALL (Escherichia coli, UniProt P23836); Sort-seq, measured: YFP reporter; E. coli; PhoQ-PhoP variant library, with: 10 µM Mg2+; relative to: high Mg2+ state, higher = stronger signaling).

Repeated from above (set 3):
For `ACCAGAGA`, the E-score was -0.287.
The E-score of `ACATACCG` is reported as 0.206.
For `CTTACTCA`, the E-score was -0.0789.
